Results gathered from unrelated publications.
Compare with care: the assays were run in different laboratories. Numbers after ± are the reported error. Converted amounts (≈) assume the structure as drawn.

`NS(=O)(=O)c1ccc(-n2cc(CNc3ccc(Cl)cc3)c(-c3ccc(OCc4ccccc4)cc3)n2)cc1` — result for “ulcer severity index”: 0.93 ± 0.12 (rat, gastric mucosa; oral, 60 mg/kg, 17 h; relative to: control score subtracted).
With `CC1(C)C(/C=C/C2=C(Oc3ccc(S(=O)(=O)O)cc3)C(=C/C=C3/N(CCCCS(=O)(=O)O)c4ccc(S(=O)(=O)[O-])cc4C3(C)C)/CCC2)=[N+](CCCCCC(=O)NCCC(O)(P(=O)(O)O)P(=O)(O)O)c2ccc(S(=O)(=O)O)cc21` the elimination half-life was 0.783 h (mouse, male, whole blood; intravenous, 10 nmol, over 4 h).
For `CCCC[C@H](NC(=O)CNC(=O)CNC(=O)CN1CCN(CC(=O)O)CCN(CC(=O)O)CCN(CC(=O)O)CC1)C(=O)N[C@H]1CC(=O)NCCCC[C@@H](C(N)=O)NC(=O)[C@H](Cc2c[nH]c3ccccc23)NC(=O)[C@H](CCCNC(=N)N)NC(=O)[C@@H](Cc2ccccc2)NC(=O)[C@H](Cc2c[nH]cn2)NC1=O` [gallium-67 labelled], “tumour to tissue ratio” read 2.4 (female C57 mice, B16/F1 melanoma; intravenous, 0.037 MBq, 4 h; relative to: tumour over kidney).
With `C=C(C)C(=O)Nc1ccc(-c2c(-c3ccc(Oc4nccc(C)n4)cc3)c3c(N)ncnc3n2C)cc1` the clearance was 1.7 mL/min/kg (cynomolgus monkey, plasma; intravenous, dose not given).
With `Cc1ccc(OCC(=O)O)cc1` the t1/2 was 3.8 h (Sprague-Dawley rat Crl:CD(SD), male, plasma; oral, 30 mg/kg/day of parent drug, day 90, 90-day repeated dosing).
`COc1ccc(/C=C/C2=[N+]3C(=C(CO)c4c(C)cc(/C=C/c5ccc(OC)cc5)n4[B-]3(F)F)C(C)=C2)cc1`: photostability “unstable” (DMSO/methanol 1:1; 1 h, with: 645 nm light, 9.00 J/cm2).
The remaining compound of `COc1cc(NC(C)=O)c2c(c1O)-c1c(OC)c(OC)cc3c1C(C2)N(C)CC3` (stereo not shown) is reported as 88.2 ± 0.6% (rat liver homogenate; 5 µg/mL, 40 d, -20 °C, long-term storage).
The MRT(0-t) of `Cc1cc(O)c2c(c1)C(=O)c1cc(O)cc(O)c1C2=O.Cc1cc(O)c2c(c1)C(=O)c1cc(O)cc(O)c1C2=O.Cc1nc(C)c(C)nc1C` is reported as 10.6 ± 1.82 h (Sprague Dawley rat, plasma; oral, 100 mg/kg).
`CCCC(CCC)NC(=O)c1ccc(OC2OC(C(=O)O)C(O)C(O)C2O)c(OC)c1` (stereo not shown) gave a Tmax of 4.5 h (male Sprague-Dawley rat, plasma; oral, 20 mg/kg of parent drug).
With `O=c1c2ccccc2[se]n1CCCCCCn1[se]c2ccccc2c1=O` the solubility was 20 to 50 mg/mL (≈ 41.8 to 105 mM) (DMSO; 24 h, 25 °C).
`COC(=O)c1ccc2c(c1)NC(=O)/C2=C(\Nc1ccc2c(c1)CCN2C(=O)CN1CCOCC1)c1ccccc1` has a clearance of 10.2 mL/min/kg (cynomolgus monkey, blood; intravenous, 2 mg/kg).
For `O=C(O)/C=C/c1cccc(S(=O)(=O)Nc2ccccc2)c1`, “Cmax metabolic ratio” read 0.0824 (human, moderate liver dysfunction, plasma; intravenous, 400 mg/m^2 belinostat, cycle 1 day -7, geometric mean; relative to: metabolite over belinostat).
With `CCOc1ccc2cc(-c3nn(CC4CCN(C)CC4)c4ncnc(N)c34)ccc2n1` the plasma concentration was 10.2 µM (piglets, Landrace x Large White, plasma; oral, 10 mg/kg twice daily, 2 h after dose 9, 7 dpi).
`O=C(O)C1OC(OC2C(COS(=O)(=O)O)OC(OC3C(C(=O)O)OC(OC4C(COS(=O)(=O)O)OC(OC5C(C(=O)O)OC(OC6C(COS(=O)(=O)O)OC(OC7C(C(=O)O)OC(OC8C(COS(=O)(=O)O)OC(OC9C(C(=O)O)OC(OC%10C(COS(=O)(=O)O)OC(OC%11C(C(=O)O)OC(Oc%12ccc([N+](=O)[O-])cc%12)C(O)C%11O)C(NS(=O)(=O)O)C%10O)C(OS(=O)(=O)O)C9O)C(NS(=O)(=O)O)C8O)C(OS(=O)(=O)O)C7O)C(NS(=O)(=O)O)C6O)C(OS(=O)(=O)O)C5O)C(NS(=O)(=O)O)C4O)C(OS(=O)(=O)O)C3O)C(NS(=O)(=O)O)C2OS(=O)(=O)O)C(O)C(O)C1OC1OC(COS(=O)(=O)O)C(O)C(O)C1NS(=O)(=O)O` (stereo not shown) has a body weight of 271 ± 5.9 g (rats; intravenous, 3600 µg/kg/day for 7 days, day 8).
For `N=C(N)NCCC[C@H](NC(=O)[C@H](CCCNC(=N)N)NC(=O)[C@H](CCCNC(=N)N)NC(=O)[C@H](CCCNC(=N)N)NC(=O)[C@H](CCCNC(=N)N)NC(=O)[C@H](CCCNC(=N)N)NC(=O)[C@H](CCCNC(=N)N)NC(=O)[C@H](CCCNC(=N)N)NC(=O)[C@H](CCCNC(=N)N)NC(=O)[C@H](CCCNC(=N)N)NC(=O)[C@H](CCCNC(=N)N)NC(=O)[C@H](CCCNC(=N)N)NC(=O)[C@H](CCCNC(=N)N)NC(=O)[C@H](CCCNC(=N)N)NC(=O)[C@H](CCCNC(=N)N)NC(=O)[C@H](CCCNC(=N)N)NC(=O)[C@H](CCCNC(=N)N)NC(=O)[C@H](CCCNC(=N)N)NC(=O)[C@H](CCCNC(=N)N)NC(=O)[C@H](CCCNC(=N)N)NC(=O)c1ccc2c(c1)C(=O)OC21c2ccc(O)cc2Oc2cc(O)ccc21)C(=O)O`, the desorbed fraction was 50 to 80% (bovine cartilage explants; 7 days, with: 10 x PBS).
`N=C(N)NCCC[C@@H]1NC(=O)[C@H](Cc2c[nH]c3ccccc23)NC(=O)[C@@H](CC2CCCCC2)NC(=O)[C@@H]2CCCN2C(=O)[C@@H](NC(=O)CCc2ccccc2)CCCNC1=O` has an MRT(0-inf) of 2.45 h (C57BL/6J mouse, plasma spinal cord; intravenous, 1 mg/kg single dose).
For `CC(C)[C@H](NC(=O)[C@@H]1CCCN1C(=O)[C@H](CCCNC(=N)N)NC(=O)[C@H](CS)NC(=O)[C@H](Cc1c[nH]c2ccccc12)NC(=O)[C@H](CCCNC(=N)N)NC(=O)[C@@H](Cc1ccccc1)NC(=O)[C@H](Cc1c[nH]cn1)NC(=O)[C@H](CCC(=O)O)NC(=O)[C@H](CS)NC(=O)[C@H](CS)NC(=O)CNC(=O)[C@@H]1CC(=O)N[C@@H](CCCNC(=N)N)C(=O)NCC(=O)N[C@@H](CC(=O)O)C(=O)N[C@H](Cc2ccc(O)cc2)C(=O)N1)C(N)=O` [technetium-99m labelled], “tumour to tissue ratio” read 4.56 (C57 mouse, female, B16/F1 melanoma; intravenous, 0.037 MBq, 2 h; relative to: tumour over liver).
`CN1CCC[C@]1(C)/C=C/S(=O)(=O)NC(=O)Nc1c2c(cc3c1CCC3)CCC2` — result for “accumulation ratio AUC(0-tau)”: 1.6 (human, plasma; oral, 12.5 mg twice daily, 14 days, multiple ascending dose; relative to: day 14 over day 1).
`O=c1c(/C=N/NC(=S)N/N=C/c2ccccn2)coc2ccccc12` — result for “peak potential separation”: 0.123 mV (cyclic voltammetry; anhydrous DMF; Cu2+ complex, glassy carbon electrode).
`CC(C)(Sc1cc[n+]([O-])cc1-c1ccc(C#N)c2ccccc12)C(=O)OC1OC(C(=O)O)C(O)C(O)C1O` (stereo not shown) has an AUC(0-inf) ratio of 136% (plasma; oral, 15 mg, mild renal impairment; relative to: impaired over normal renal function).
Under “subjects with TEAE”, `Cn1c(=O)oc2ccc(-c3ccc(CC(C#N)NC(=O)C4CNCCCO4)c(F)c3)cc21` (stereo not shown) is recorded as 0% (measured: urinary occult blood positive; human; 15 mg single dose, fasted).
For `CCCCCCCCCCCCCCCC(=O)N[C@@H](CCCCN)C(=O)N[C@@H](CCCCN)C(=O)N[C@@H](CO)C(=O)N[C@@H](CCCNC(=N)N)C(=O)N[C@@H](C)C(=O)N[C@@H](CC(C)C)C(=O)N[C@@H](Cc1ccccc1)C(N)=O`, the prothrombin time was 11.7 ± 0.2 s (cynomolgus monkey, male; 3 mg/kg, day 5).
For `CC[C@H](C)[C@H](NC(=O)[C@H](Cc1ccccc1)NC(=O)[C@H](CCC(=O)O)NC(=O)[C@H](CCCCN)NC(=O)[C@H](C)NC(=O)[C@H](C)NC(=O)[C@H](CCC(N)=O)NC(=O)CNC(=O)[C@H](CCC(=O)O)NC(=O)[C@H](CC(C)C)NC(=O)[C@H](Cc1ccc(O)cc1)NC(=O)[C@H](CO)NC(=O)[C@H](CO)NC(=O)[C@@H](NC(=O)[C@H](CC(=O)O)NC(=O)[C@H](CO)NC(=O)[C@@H](NC(=O)[C@H](Cc1ccccc1)NC(=O)[C@@H](NC(=O)CNC(=O)[C@H](CCC(=O)O)NC(=O)[C@H](C)NC(=O)[C@@H](N)Cc1c[nH]cn1)[C@@H](C)O)[C@@H](C)O)C(C)C)C(=O)N[C@@H](C)C(=O)N[C@@H](Cc1c[nH]c2ccccc12)C(=O)N[C@@H](CC(C)C)C(=O)N[C@H](C(=O)N[C@@H](CCCCN)C(=O)NCC(=O)N[C@@H](CCCNC(=N)N)C(N)=O)C(C)C`, “metabolic clearance rate” read 15.4 ± 7.4 mL/min/kg (human type 2 diabetes, plasma; intravenous infusion, 1.2 pmol/kg/min, 60 to 360 min).
For `NC12CNCCNCC(NCc3ccc(CNC(=O)CCCC(=O)NCc4ccc(-c5nncnn5)cc4)cc3)(CNCCNC1)CNCCNC2.[64Cu+2]`, “mean absorbed dose” read 0.066 rad/mCi (OLINDA dosimetry; kidneys; 24 h pretargeting interval, with: huA33-TCO pretargeting).
`CC[C@H](C)[C@H](NC(=O)[C@H](Cc1ccccc1)NC(=O)[C@H](CC(=O)O)NC(=O)[C@@H]1CCCNC(=O)NCCCC[C@H](NC(=O)[C@H](CC(C)C)NC(=O)[C@H](CCCNC(=N)N)NC(=O)[C@H](CCSC)NC(=O)[C@H](C)N)C(=O)N[C@@H](CCCCN)C(=O)N[C@@H](Cc2ccccc2)C(=O)N[C@@H](Cc2ccccc2)C(=O)N1)C(=O)N[C@@H](CC(C)C)C(=O)N[C@@H](CCC(N)=O)C(=O)N[C@@H](CCCNC(=N)N)C(=O)N[C@@H](CCCCN)C(=O)N[C@@H](CCCCN)C(=O)O` has a helicity of 30.2% (circular dichroism; 20% TFE in PBS; 200 µM, pH 7.4, 25 °C).
For `O=C(O)[C@@H]1C[C@@H](O)CN1C(=O)[C@@H]1CCCN1`, the log beta was 9.21 (potentiometric titration; 25 °C, MAH-1 complex, with: Fe(III)).
`CSCOC1C(=O)C2(C)C(OCSC)CC3OCC3(OC(C)=O)C2C(OC(=O)c2ccccc2)C2(O)CC(OC(=O)C(O)C(C=C(C)C)NC(=O)OC(C)(C)C)C(C)=C1C2(C)C` (stereo not shown) gave an MRT(0-t) of 4.9 h (female Sprague-Dawley rat, plasma; intravenous, 4 mg/kg).
For `COCCn1c2ccc([N+](=O)[O-])cc2c(=O)n1Cc1ccccc1`, the CC50 was 4.8 ± 1 µM (resazurin; peritoneal macrophages, BALB/c mice; 48 h, 10% FBS).

For quick reference, copied from above:
`CN1CCC[C@]1(C)/C=C/S(=O)(=O)NC(=O)Nc1c2c(cc3c1CCC3)CCC2` — result for “accumulation ratio AUC(0-tau)”: 1.6 (human, plasma; oral, 12.5 mg twice daily, 14 days, multiple ascending dose; relative to: day 14 over day 1).
The remaining compound of `COc1cc(NC(C)=O)c2c(c1O)-c1c(OC)c(OC)cc3c1C(C2)N(C)CC3` (stereo not shown) is reported as 88.2 ± 0.6% (rat liver homogenate; 5 µg/mL, 40 d, -20 °C, long-term storage).
